Measurements gathered from unrelated publications.
Lines come from different studies, so protocols differ.
Molecule type: double-stranded DNA, one strand shown
pmiR 1-240: pmiR fragment (Pseudomonas aeruginosa)
fruR: fruR (Faecalibacterium prausnitzii)
T1: mexT 1-304 (Pseudomonas aeruginosa); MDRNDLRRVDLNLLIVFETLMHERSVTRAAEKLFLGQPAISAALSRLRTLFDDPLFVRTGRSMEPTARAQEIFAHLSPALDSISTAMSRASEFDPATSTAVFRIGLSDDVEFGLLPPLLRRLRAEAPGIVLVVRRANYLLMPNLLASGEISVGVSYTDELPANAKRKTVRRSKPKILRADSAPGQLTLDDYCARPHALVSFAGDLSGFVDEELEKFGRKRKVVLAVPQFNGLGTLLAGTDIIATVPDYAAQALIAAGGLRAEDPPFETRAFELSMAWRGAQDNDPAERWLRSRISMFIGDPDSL
T2: vfr 1-214 (Pseudomonas syringae); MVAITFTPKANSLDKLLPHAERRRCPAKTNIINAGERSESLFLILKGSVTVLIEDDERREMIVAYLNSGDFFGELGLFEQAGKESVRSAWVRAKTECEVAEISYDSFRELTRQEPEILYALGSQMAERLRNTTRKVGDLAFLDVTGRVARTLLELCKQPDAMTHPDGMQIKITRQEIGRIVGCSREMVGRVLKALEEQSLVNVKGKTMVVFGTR
T3: fruR (Faecalibacterium prausnitzii); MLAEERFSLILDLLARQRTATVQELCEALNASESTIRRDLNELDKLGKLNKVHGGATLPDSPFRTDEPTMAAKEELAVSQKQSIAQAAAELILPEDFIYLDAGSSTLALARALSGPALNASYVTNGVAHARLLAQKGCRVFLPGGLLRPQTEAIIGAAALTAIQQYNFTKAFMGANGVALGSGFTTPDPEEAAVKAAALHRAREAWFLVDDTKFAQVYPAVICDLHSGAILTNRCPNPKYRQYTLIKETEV
T4: cbrB residues 1-471 (Pseudomonas stutzeri); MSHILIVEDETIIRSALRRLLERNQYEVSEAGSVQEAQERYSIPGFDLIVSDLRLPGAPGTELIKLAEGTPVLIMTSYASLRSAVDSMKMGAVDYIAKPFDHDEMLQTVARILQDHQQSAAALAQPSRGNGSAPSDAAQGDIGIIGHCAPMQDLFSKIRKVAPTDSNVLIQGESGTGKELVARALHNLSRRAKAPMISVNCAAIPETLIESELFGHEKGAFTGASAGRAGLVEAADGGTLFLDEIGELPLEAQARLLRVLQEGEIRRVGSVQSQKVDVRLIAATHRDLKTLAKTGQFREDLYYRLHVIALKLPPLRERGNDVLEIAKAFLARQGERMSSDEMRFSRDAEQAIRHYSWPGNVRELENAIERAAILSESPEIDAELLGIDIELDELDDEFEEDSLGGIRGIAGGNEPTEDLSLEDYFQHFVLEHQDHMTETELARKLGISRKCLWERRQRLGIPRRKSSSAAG
Chain of UniProt Q9WW32 (whole entry, looked up): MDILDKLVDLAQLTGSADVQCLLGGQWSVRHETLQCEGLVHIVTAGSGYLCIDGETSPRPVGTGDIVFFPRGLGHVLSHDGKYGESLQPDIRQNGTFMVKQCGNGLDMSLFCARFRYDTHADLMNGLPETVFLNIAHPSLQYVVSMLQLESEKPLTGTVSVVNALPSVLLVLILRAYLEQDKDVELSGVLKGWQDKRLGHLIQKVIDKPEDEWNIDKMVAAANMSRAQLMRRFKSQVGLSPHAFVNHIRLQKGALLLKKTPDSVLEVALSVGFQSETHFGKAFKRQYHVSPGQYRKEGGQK
Chain of UniProt Q8NP86 (whole entry, looked up): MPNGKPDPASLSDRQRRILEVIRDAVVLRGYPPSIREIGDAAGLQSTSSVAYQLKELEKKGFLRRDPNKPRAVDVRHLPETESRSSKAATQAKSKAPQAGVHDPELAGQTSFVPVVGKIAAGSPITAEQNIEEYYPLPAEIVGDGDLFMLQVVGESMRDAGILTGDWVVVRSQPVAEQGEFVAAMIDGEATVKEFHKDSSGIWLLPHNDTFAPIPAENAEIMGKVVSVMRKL

Sequence	target	method	setting	with	binding
CGTAGGCGTAGGTGGAACTCATGGCGATGATGGTCTTGTCCAGATCGAAAAAAGCAGCCACCTTTGTGGGGGTGGTCGCAGTGGTGCCCTCTACTTTTTGGGCGGGATCTGGGTGCTTCACACCGCATAGTTTAGCGCTTTTTGGCAACTTTCCAAGACTGAGAAAGAAACTAAAGTTACCAATGAGATTGAAGTGACGTGCTGGGGTTGCGCATTGGGAATGTAGAAGGCGTGCGGGAAGTGTCATTTGCCACACTGTTAAGTATTCGTG (dsDNA (Corynebacterium glutamicum))	lexA full length assumed (Corynebacterium glutamicum, UniProt Q8NP86)	EMSA			no binding
CGGCTTTTCTTTTCGCCTTATTTATCCAATTTATCGATTAAATAGAGAAAAGCTAACTATCCTTTACGAAATCTTCGACATCACAAAAATAATCAACTAACTTACTGATAAGTAATAAGAAAACACATAATCACCCATGTCTGTAGACACTATCATCGCACTTCGTTTTTAAATCGACTTATCCGAACTGAAAATGACTCCAACGCA (dsDNA (Pseudomonas aeruginosa))	T1, mexT 1-304 (Pseudomonas aeruginosa)	EMSA			no binding
GTATCCATTGCAAACATTCCTTTGGTGCATTATTTATTGAATTTATCATTGACGGCTGTTACACATTTTAAATATTGATATTCATGGTGCTTTTATTTTCGTGGTGAAAGGGGGTGTTTATGAATAAATATAATTATTAGGTGGTTAAGTTGATCGTTAATCCATTTTTGCTTTATCATCGTCACGTTTCACATCAATATATCTTCAATAATTATTTCTTAAGGAAAGGAACTGCTATGGC (dsDNA (Klebsiella pneumoniae); blunt)	hns 1-135 (Klebsiella pneumoniae, UniProt A0ACD7U3E5)	EMSA			binds
TACGTCACCGGGCTGTGCCAAAAAGGGTCGCCTGTGCGGCCCTTTTTTATTTTCGCGCCGAGGGCAGGGAAGCGCACAAAAGTGAGACTTGTGTCACGGCACGGCGCTTGCTACAAAGATGACAGAAAAGTGCCATCATTTTAATGGCGCTGAGGGTGGAGGGATTCTCCT (dsDNA (Pseudomonas syringae))	T2, vfr 1-214 (Pseudomonas syringae)	EMSA			binds
GAGTTCTCTCCTTGTCGACCGGCTCAGAGGATCTTGTTCCCCCGGTGTACCAGGGGTCCGTGGTGCCCATTTTGCCGGACAGTCCAAACAGTGTGATCTGTCACAAGGATGCCGCACTGATGTCCCGGGGTACGCGGCAGGGGTCCAATTGGGCGCCGGTCTTCGAGGTCCGGGGCGGATGTCCGTGCCGGGTCGTAGGCTGGCCGGGTGTCCAAATCGCCGGTGAGAGCACA (dsDNA)	crp 1-224 (Streptomyces coelicolor, UniProt Q9XA42)	DNase I footprinting		cAMP 50 µM	binds
TGATTGTCGACAATCGTCTAATGCATCGCTGGTCTATGCTTTCCCCTCCAGCCGCTGTGCCAGGAGAGAGTTTCGTGGGCATCTATGACCGTTACGTGTTGCCGCGCCTGATCGACTTCGCCTGCGGCATGGGCG (dsDNA)	pmiR 1-240	EMSA			no binding
CCGTGATCCCTGGCTCCCCTATTAGGAGAGCTCCGCAAGGCGCTGGCACAGCCAGACCGAAGCGGTGAGAGATTCAGCCGACATTCCATTGTGGAGTGTCGGCCTTTTTGTTGTATCCCACTCTTTATGCATCCTGCCCAAAAAACAGAGCAATATTTTGTCGCTCAAACTTGGCGGAATCTGATTGATTTTGACTGAAATTTTGCTATAATAAGGGTACCATTTTCGCCGAACCCGCCAATGTCAATCAAAATCAATCATATAAATCGAACAAGGGGGAATGTTCCCG (dsDNA)	T3, fruR (Faecalibacterium prausnitzii)	EMSA	apo		binds
ATCTGCTTGTTATTGTTGTTGTGCCATTAGGTAAGCAGTTGCCGTGCCAGTTTTAGGAAATCGTTATATTTCAATGAGTTGTGATTTCCAGGCTTGGCGGAAGGCAAGAAAAAACCGGGGCGTCGTTACCGATGCTCCCGGTTTTTGTTACGAACGATGCGCCGGCGGTAACAAATTACCCGGCGGCGCTACTGGACTTGCGCCGCGGAATGCCCAGGCGCTGGCGGCGTTCCCACAGGCATTTGCGGCTGATGCCGAGCTTGC (dsDNA)	T4, cbrB residues 1-471 (Pseudomonas stutzeri)	DNase I footprinting			binds
TGATTGACCCCACGCAATCCAGGCGGTAGCTTTCGCAAACATTGTCGACACATCGACCCGGACAGCCAGTACCATGACCCAGAACCCGCCCCCTCTCGAGATTGCCCATGACGACGGAGAGACCTTGTCGGAACACGTCTTCCGCAAGATCCAGAGCGCCATCGTCAGCGGCG (dsDNA)	pmiR 1-240	EMSA			no binding
CCAAGGGTGCTATAATAGGAAATGAGTTAAAAAACGAACAAGCGTTTTATAAGTGTTCGGTTTTTGTAACATAACTGTAATATAAAAACATTTGCATTACTGGTAACTTTCGGGTAATATTGGTAGCAGAGAGGGACAAACGGGACAAATCGAGACACGATACATACTCTCTATACAAGTGAAAAGAAGGTGGTGCATAT (dsDNA)	gp1 1-58 (Bacillus phage GIL01, UniProt Q7WSG8)	EMSA		gp1 2-32 nM	binds
GCCTAAAAGAGGATATCCTTATAGCATAATTAACTAAACTTAATTAAATAAATAATATATCCTAAGGAGAGAAATG (dsDNA)	Manganese transport regulator 1-215 (Streptococcus pyogenes, UniProt A0A0H2UTK0)	EMSA		Mn2+ 300 µM	binds
CCCTGGATAAGAACGGTCATCCGTTGCTCCTTAGCAGCGGCATCCGTCGCGACTTCGCGCGGTCGCGACAGGCCTGCCCGAGACGATGAAAATGTCCATCCTAGCCGCCCCGGACAGCCCACCGACCCTATCAGAAGATCGAGTTGACCCTGCTCGCCGACACCTCGCCGCTCGCTTTTCCTGTCCTCCAGGCCACCGGGAGTCCGGCGCGCCGGGAAGGCAAGCGTGGCCCGGGCACGGCACGCGTGGCCGGAAATCCCCGCTAGCCGCCGCCCGCCGCGGCGCT (dsDNA)	pmiR 1-240	EMSA			binds
CGTTTCGGGTCGGTTTGACGAGGGCGGATTATAAAAAAGACTTTTTATCCGTGCAATCGTGTATGTATAATGAAACCCATAAAATTGAGACTGC (dsDNA (Neisseria gonorrhoeae))	mtrA 1-301 (Neisseria gonorrhoeae, UniProt Q9WW32)	DNase I footprinting			binds
CCGTGATCCCTGGCTCCCCTATTAGGAGAGCTCCGCAAGGCGCTGGCACAGCCAGACCGAAGCGGTGAGAGATTCAGCCGACATTCCATTGTGGAGTGTCGGCCTTTTTGTTGTATCCCACTCTTTATGCATCCTGCCCAAAAAACAGAGCAATATTTTGTCGCTCAAACTTGGCGGAATCTGATTGATTTTGACTGAAATCATTTTCGCCTAAGGGTACAAGGCGGTCAGAACCCGCCAATGTCAATCAAAATCAATCATATAAATCGAACAAGGGGGAATGTTCCCG (dsDNA)	T3, fruR (Faecalibacterium prausnitzii)	EMSA	apo		binds
AATCTCGAGTACCCGGCGACGCCTTCTGAACCGACCTATCCTTGCCCCGGCCTTCCGCCACCGCGAAAGGCCGGGGCGTCTTGCAGCCACGACAAGAAAAACCATCCCCGAACCAGCCTGACCCGAGAGGAAACCCACCACTTACGAACCACTGGAGTACGCGATGAGTGCCAACGTCGATCTGGATCCAAT (dsDNA)	pmiR 1-240	EMSA			no binding

Repeated from above:
Sequence	target	method	setting	with	binding
AATCTCGAGTACCCGGCGACGCCTTCTGAACCGACCTATCCTTGCCCCGGCCTTCCGCCACCGCGAAAGGCCGGGGCGTCTTGCAGCCACGACAAGAAAAACCATCCCCGAACCAGCCTGACCCGAGAGGAAACCCACCACTTACGAACCACTGGAGTACGCGATGAGTGCCAACGTCGATCTGGATCCAAT (dsDNA)	pmiR 1-240	EMSA			no binding
